# Measured values gathered from unrelated publications.
# Values joined by “and” are separate records of one study, mostly repeats; a detail may differ. ± gives the spread as reported.
# CSNK1D: Casein kinase I isoform delta (CSNK1D, Homo sapiens, UniProt P48730)
# Chain of UniProt P48730 (whole entry, looked up): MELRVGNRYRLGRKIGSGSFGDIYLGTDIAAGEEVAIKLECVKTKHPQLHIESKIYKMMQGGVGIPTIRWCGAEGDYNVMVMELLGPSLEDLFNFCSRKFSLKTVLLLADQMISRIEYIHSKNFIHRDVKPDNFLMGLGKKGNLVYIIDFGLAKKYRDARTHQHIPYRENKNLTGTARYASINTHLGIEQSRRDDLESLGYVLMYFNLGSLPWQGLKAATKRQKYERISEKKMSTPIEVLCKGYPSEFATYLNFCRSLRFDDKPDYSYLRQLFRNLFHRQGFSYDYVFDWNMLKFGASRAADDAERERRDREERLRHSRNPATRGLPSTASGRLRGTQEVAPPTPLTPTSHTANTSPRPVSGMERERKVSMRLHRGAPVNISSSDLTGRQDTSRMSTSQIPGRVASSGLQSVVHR
# IDE: Insulin-degrading enzyme (IDE, Homo sapiens, UniProt P14735)
# CYP2E1: Cytochrome P450 2E1 (CYP2E1, Homo sapiens, UniProt P05181)
# Chain of UniProt P05181 (whole entry, looked up): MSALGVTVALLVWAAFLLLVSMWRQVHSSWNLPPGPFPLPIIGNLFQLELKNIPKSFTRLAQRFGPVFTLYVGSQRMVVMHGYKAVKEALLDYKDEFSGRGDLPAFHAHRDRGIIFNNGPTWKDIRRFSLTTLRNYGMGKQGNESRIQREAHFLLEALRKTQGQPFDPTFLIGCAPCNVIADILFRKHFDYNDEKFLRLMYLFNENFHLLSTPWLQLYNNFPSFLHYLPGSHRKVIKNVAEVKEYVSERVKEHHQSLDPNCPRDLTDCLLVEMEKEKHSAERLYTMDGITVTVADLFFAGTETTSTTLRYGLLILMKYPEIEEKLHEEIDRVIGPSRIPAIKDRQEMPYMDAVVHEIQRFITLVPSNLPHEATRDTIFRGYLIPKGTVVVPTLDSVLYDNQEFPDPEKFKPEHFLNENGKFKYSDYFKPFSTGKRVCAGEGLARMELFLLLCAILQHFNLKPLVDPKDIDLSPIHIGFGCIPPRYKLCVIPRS
# PSMB5: Proteasome Macropain subunit MB1 (PSMB5, Homo sapiens, UniProt P28074)
# Chain of UniProt P28074 (whole entry, looked up): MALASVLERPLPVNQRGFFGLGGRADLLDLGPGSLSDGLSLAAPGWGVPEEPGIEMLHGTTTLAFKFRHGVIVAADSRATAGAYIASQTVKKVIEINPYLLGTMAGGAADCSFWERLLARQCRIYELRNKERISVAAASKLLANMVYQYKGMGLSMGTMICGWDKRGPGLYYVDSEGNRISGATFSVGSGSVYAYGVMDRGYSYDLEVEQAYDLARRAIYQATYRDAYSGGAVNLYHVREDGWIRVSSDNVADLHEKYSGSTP
# Chain of UniProt P37231 (whole entry, looked up): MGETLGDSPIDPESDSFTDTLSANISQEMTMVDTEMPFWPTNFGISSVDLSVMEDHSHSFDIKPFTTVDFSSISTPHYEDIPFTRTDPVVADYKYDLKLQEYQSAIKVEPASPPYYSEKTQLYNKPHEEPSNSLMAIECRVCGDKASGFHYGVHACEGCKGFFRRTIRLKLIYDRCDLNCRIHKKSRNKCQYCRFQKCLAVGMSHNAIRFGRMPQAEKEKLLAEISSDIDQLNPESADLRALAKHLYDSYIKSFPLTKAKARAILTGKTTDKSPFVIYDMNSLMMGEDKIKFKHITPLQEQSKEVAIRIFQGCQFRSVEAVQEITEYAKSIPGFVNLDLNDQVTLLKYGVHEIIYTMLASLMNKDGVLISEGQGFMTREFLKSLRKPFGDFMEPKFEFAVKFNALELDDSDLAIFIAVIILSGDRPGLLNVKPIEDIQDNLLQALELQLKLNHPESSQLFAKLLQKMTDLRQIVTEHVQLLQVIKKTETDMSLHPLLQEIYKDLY
# Chain of UniProt P14555 (whole entry, looked up): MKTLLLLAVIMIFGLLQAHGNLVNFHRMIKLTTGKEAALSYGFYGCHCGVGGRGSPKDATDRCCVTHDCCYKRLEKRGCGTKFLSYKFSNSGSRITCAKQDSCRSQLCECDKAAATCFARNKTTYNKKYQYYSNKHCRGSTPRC
# Chain of UniProt O14638 (whole entry, unmodified, looked up): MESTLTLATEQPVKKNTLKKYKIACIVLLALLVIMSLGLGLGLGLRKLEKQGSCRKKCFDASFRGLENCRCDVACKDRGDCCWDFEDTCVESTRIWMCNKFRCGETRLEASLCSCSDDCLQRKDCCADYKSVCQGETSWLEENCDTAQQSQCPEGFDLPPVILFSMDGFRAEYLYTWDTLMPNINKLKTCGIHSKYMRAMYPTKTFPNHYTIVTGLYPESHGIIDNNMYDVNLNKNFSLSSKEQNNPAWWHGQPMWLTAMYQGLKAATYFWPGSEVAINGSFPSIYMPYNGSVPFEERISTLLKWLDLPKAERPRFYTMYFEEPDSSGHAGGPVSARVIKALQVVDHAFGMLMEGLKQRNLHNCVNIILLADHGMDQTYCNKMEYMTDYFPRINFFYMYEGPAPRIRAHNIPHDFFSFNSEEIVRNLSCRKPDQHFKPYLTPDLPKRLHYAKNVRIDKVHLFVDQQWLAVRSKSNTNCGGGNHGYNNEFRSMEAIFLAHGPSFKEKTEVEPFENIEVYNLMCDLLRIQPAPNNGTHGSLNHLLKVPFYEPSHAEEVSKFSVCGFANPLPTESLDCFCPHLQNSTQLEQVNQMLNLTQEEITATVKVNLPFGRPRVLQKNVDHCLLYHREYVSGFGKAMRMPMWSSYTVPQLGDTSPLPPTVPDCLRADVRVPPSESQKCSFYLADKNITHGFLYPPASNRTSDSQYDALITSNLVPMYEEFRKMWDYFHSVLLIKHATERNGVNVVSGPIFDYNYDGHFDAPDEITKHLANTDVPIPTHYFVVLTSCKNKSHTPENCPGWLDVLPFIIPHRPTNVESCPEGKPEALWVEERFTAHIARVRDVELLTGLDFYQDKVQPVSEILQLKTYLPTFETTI
# Chain of UniProt P11388 (whole entry, looked up): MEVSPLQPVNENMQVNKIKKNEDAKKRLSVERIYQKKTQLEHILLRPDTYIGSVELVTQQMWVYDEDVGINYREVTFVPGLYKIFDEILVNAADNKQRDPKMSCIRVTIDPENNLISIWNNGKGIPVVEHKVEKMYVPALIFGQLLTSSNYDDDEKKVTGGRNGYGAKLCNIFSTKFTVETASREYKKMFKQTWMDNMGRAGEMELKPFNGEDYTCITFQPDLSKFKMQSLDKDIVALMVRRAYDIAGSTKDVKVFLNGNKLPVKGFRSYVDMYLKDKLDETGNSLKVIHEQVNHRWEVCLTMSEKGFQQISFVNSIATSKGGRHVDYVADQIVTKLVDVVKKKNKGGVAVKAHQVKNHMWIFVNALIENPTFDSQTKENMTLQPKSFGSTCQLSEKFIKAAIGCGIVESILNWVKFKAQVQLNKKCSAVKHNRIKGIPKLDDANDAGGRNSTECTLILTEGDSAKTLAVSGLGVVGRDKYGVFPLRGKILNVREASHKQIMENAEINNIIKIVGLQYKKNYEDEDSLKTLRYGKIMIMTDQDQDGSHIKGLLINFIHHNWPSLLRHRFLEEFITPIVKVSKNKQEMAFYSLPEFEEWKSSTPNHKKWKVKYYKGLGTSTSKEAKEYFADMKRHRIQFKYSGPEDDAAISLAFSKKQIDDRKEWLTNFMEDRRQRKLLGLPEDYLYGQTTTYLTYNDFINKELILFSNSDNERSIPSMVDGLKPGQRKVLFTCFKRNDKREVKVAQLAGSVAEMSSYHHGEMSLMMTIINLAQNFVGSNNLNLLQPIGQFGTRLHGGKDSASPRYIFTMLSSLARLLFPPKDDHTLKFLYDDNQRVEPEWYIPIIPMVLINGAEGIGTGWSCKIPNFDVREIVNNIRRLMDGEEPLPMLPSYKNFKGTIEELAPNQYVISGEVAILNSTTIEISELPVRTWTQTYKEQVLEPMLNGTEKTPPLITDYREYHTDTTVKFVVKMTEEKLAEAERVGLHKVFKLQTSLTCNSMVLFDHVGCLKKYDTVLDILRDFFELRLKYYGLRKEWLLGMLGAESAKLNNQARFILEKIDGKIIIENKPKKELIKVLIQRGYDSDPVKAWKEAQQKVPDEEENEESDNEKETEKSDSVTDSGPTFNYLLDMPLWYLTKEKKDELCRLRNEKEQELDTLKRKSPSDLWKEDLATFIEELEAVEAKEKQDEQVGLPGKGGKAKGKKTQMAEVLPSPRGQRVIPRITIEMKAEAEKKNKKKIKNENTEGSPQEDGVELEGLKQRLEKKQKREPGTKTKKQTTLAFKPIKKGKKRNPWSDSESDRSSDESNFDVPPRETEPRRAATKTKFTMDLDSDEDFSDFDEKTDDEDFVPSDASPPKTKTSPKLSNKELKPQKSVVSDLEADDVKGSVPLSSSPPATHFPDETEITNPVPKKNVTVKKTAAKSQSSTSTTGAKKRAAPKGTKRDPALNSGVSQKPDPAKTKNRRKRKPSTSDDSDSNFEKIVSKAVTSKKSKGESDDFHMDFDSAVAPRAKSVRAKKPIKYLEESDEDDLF
# Chain of UniProt P23443 (whole entry, looked up): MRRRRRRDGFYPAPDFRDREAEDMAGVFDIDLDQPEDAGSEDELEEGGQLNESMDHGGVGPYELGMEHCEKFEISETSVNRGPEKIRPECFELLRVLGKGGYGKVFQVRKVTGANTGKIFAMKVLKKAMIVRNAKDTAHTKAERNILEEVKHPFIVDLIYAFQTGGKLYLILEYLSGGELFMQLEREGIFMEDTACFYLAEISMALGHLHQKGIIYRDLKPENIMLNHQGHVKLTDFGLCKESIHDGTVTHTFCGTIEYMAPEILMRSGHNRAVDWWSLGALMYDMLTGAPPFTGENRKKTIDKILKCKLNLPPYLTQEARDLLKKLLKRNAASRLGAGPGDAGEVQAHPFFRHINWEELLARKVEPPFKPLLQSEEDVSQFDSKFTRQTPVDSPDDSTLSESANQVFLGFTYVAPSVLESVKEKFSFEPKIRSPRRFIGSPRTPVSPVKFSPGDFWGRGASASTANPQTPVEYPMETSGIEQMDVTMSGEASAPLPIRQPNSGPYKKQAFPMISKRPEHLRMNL
# Chain of UniProt P00383 (whole entry, looked up): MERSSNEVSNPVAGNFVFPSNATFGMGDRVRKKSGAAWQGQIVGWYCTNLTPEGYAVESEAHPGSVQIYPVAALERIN
SMILES,target,test,system,conditions,endpoint,value
COc1ccc([N+](=O)[O-])cc1-c1nc(-c2ccc(F)cc2)c(-c2ccncc2)[nH]1,CSNK1D,inhibitor,,,IC50,51.9 ± 6.4 nM
CC/C(=N\NC(=O)NCc1cccc(O)c1)c1ccc(O)c(C)c1O,"Ribosomal protein S6 kinase beta-1 (RPS6KB1, Homo sapiens, UniProt P23443)","kinase activity, inhibitor",,,IC50,36.4 ± 2.61 nM
CC[C@@H]1[C@H](F)C(=O)N[C@@H]1COc1nccc2cc(C(N)=O)c(OC)cc12,"Phosphorylase b kinase gamma catalytic chain, liver/testis isoform (PHKG2, Homo sapiens, UniProt P15735)","ATP probe binding, KiNativ profiling, refers to: Lys1 probe site",THP-1 cell lysate,,IC50,> 5000 nM
Cc1cccc(-c2ccc([C@@H]3[C@H]4CN(C(=O)c5cccnc5)CC(=O)N4[C@H]3CO)cc2)c1,IDE,"enzyme activity, inhibitor, fluorogenic kinetic",,together with: Mca-RPPGFSAFK(Dnp)-OH substrate,EC50,4200 nM
O=c1nc(SCc2cc(F)cc(C(F)(F)F)c2)nc(SCc2ccc3sccc3c2)[nH]1,"DNA topoisomerase 2-alpha (TOP2A, Homo sapiens, UniProt P11388)","ATPase activity, ATP-competitive inhibitor",,together with: ATP 1 mM,IC50,9300 nM
NCc1ccc(CNC(=O)c2cnn(Cc3ccc(Cn4ccccc4=O)cc3)c2)cc1,"Prothrombin (F2, Homo sapiens, UniProt P00734)",,,,IC50,> 40000 nM
CNC(=O)c1ccc2nc(-c3ccc(OCCCOc4ccc(-c5nc6ccc(C(=O)NC)cc6[nH]5)cc4Br)c(Br)c3)[nH]c2c1,"Dihydrofolate reductase type 2 (Escherichia coli, UniProt P00383)",enzyme activity,,pH 7,IC50,> 100000 nM
COCC(=O)N1CCC[C@H](C(=O)NCc2nc(-c3ccc(C#N)cc3)cs2)C1,"uncharacterized protein (Plasmodium falciparum, UniProt A0A5K1K7U1+Q8I261+Q8IJT1)",Suc-LLVY-AMC,,together with: WLW-vs 0.5 µM,IC50,47 ± 11 nM
COc1cccc2c(N3CCC(CCP(=O)(O)O)CC3)ncnc12,"Ectonucleotide pyrophosphatase/phosphodiesterase family member 3 (Homo sapiens, UniProt O14638, Q244K)","cGAMP hydrolysis, inhibitor, cGAMP luciferase",,"overnight, together with: cGAMP 2 µM",IC50,13 nM
CCc1oc2ccccc2c1C(=O)c1cc(Br)c(O)c(Br)c1,CYP2E1,p-nitrophenol hydroxylation,baculosomes,10 min,IC50,30 nM
COc1ccccc1-c1nc(-c2ccc(F)cc2)c(-c2ccncc2)[nH]1,CSNK1D,inhibitor,,,IC50,161 ± 23.5 nM
Cc1ccccc1S(=O)(=O)N1CCCCN2[C@H](CO)[C@@H](c3ccc(-c4ccc5c(c4)OCO5)cc3)[C@@H]2C1,IDE,"enzyme activity, inhibitor, fluorescence kinetic",,together with: Mca-RPPGFSAFK(Dnp)-OH substrate,EC50,2900 nM
c1cc(N2CCCCC2)ccc1Nc1cc2ncc(OCC3CCNCC3)nc2cc1-c1ccc(N2CCCCC2)cc1,"Protein AF-9, with DOT1L (Homo sapiens, UniProt P42568)","DOT1L binding, AlphaLISA",,,IC50,850 ± 110 nM
Cc1cc(OC(C)C)ccc1C(=O)C(C)(C)NC(=O)c1sccc1C,"cytochrome bc1 complex (Corynespora cassiicola, UniProt A0A2T2NJU0+A0A2T2P1V1+A0A2T2PCF5)",succinate-cytochrome c reductase activity,"Corynespora cassiicola, mitochondrial fraction",25 °C,IC50,1.95 nM
CC(C)C[C@H](NC(=O)CN1CCOCC1)C(=O)N[C@@H](CC(C)C)C(=O)N[C@H](/C=C/S(C)(=O)=O)Cc1ccc(CN)cc1,PSMB5,competitive ABPP,Raji cell lysate,,IC50,> 10000 nM
O=c1c(O)c(-c2ccc(O)c(O)c2)oc2cc(O)cc(O)c12,CYP2E1,,pooled human liver microsomes,10 min,IC50,24200 nM
COc1ccc(C[C@H](NC(=O)[C@H](C)NC(=O)CN2CCOCC2)C(=O)N[C@@H](CC2CCC(C(F)(F)F)CC2)C(=O)[C@@]2(C)CO2)cc1 (some centres unmarked),PSMB5,competitive ABPP,Raji cell lysate,,IC50,> 10000 nM
CC1CC(C)CN(c2ccc(C=NNc3nc(-c4ccc(-c5ccccc5)cc4)cs3)cc2)C1 (centres unmarked),alpha-glucosidase,"enzyme activity, inhibitor",,together with: p-nitrophenyl-alpha-D-glucopyranoside,IC50,30100 nM
COc1ccc2cc(/C=N/n3c(C)nc4ccc(Br)cc4c3=O)ccc2c1,"Phospholipase A2, membrane associated (Homo sapiens, UniProt P14555)","enzyme activity, inhibitor, colorimetric",,,IC50,16800 ± 1000 nM
O=C(Nc1ccc(CCF)cc1)c1cc([N+](=O)[O-])ccc1Cl,"Peroxisome proliferator-activated receptor gamma, with RXR (PPARG, Homo sapiens, UniProt P37231)","reporter gene, antagonist, PPRE-TK-luciferase",transfected HepG2,"24 h, together with: GW1929",IC50,20 nM and 19.9 nM

# A few entries again:
SMILES,target,test,system,conditions,endpoint,value
O=c1c(O)c(-c2ccc(O)c(O)c2)oc2cc(O)cc(O)c12,CYP2E1,,pooled human liver microsomes,10 min,IC50,24200 nM
COc1ccc(C[C@H](NC(=O)[C@H](C)NC(=O)CN2CCOCC2)C(=O)N[C@@H](CC2CCC(C(F)(F)F)CC2)C(=O)[C@@]2(C)CO2)cc1 (some centres unmarked),PSMB5,competitive ABPP,Raji cell lysate,,IC50,> 10000 nM
CC1CC(C)CN(c2ccc(C=NNc3nc(-c4ccc(-c5ccccc5)cc4)cs3)cc2)C1 (centres unmarked),alpha-glucosidase,"enzyme activity, inhibitor",,together with: p-nitrophenyl-alpha-D-glucopyranoside,IC50,30100 nM
